Experimental data from different studies.
A part holds a random share of what one study measured. ≈ marks a conversion by molar mass, not a printed value.
Sequence of UniProt Q01959 (whole entry, looked up): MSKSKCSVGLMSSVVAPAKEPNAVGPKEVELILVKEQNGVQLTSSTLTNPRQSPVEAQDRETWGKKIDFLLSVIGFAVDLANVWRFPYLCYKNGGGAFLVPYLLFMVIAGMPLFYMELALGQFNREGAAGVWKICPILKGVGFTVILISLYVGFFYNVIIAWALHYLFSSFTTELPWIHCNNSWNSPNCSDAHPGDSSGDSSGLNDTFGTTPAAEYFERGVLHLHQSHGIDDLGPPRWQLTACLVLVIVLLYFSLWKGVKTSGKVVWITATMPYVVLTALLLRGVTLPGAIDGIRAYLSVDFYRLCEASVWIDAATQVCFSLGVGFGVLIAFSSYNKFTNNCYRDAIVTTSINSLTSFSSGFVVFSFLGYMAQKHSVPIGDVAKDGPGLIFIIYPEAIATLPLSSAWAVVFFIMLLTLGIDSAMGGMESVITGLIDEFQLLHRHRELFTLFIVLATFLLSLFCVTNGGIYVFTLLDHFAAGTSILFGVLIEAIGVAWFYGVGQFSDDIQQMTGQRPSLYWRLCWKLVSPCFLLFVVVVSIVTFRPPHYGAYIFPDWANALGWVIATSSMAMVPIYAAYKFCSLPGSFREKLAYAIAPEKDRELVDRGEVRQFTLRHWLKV

Study 1
Structure (SMILES): CC[C@H](C)[C@H](NC(=O)[C@H](CC(C)C)NC(=O)[C@H](CCCCN)NC(=O)[C@@H](NC(=O)[C@H](C)NC(=O)[C@H](CCC(=O)O)NC(=O)[C@H](Cc1c[nH]cn1)NC(=O)[C@@H](NC(=O)[C@H](CCCCN)NC(=O)[C@H](CCC(N)=O)NC(=O)[C@H](Cc1ccccc1)NC(=O)[C@@H](NC(=O)[C@H](CCCCN)NC(=O)[C@H](CCCCN)NC(=O)[C@H](CC(C)C)NC(=O)[C@H](C)NC(=O)[C@H](CC(N)=O)NC(=O)[C@@H](N)CC(C)C)C(C)C)[C@@H](C)CC)[C@@H](C)CC)C(N)=O
Time: 18 h
Temperature: 37 °C
Quantity: MIC
Staphylococcus aureus; USA300, resistant: 4 µM (≈ 8.42 µg/mL)
Pseudomonas aeruginosa; 4891, resistant: 4 µM (≈ 8.42 µg/mL)
Staphylococcus aureus; broth microdilution; ATCC 25923: 4 µM (≈ 8.42 µg/mL)

Study 2
Target: Amine oxidase [flavin-containing] A (MAOA, Homo sapiens, UniProt P21397)
Sequence of UniProt P21397 (whole entry, looked up): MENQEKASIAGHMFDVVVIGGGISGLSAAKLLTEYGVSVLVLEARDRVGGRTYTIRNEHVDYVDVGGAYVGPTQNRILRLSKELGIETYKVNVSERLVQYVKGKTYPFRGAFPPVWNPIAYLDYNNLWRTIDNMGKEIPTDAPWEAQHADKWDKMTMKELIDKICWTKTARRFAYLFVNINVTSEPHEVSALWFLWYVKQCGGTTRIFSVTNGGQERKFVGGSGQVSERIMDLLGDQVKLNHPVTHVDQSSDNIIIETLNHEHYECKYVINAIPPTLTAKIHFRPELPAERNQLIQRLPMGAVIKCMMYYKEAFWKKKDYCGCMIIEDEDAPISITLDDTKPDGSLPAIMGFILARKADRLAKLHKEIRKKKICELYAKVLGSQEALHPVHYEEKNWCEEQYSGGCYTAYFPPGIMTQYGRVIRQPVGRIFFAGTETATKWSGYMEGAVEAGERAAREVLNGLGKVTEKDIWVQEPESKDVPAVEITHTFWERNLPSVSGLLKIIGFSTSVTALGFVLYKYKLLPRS
Read-out: enzyme activity
Action: inhibitor
Technique: HRP-coupled
Concentration: 100 µM
Together with: kynuramine substrate
Quantity: inhibition
NC1CC1c1ccc(NC(=O)Cc2ccc3ccccc3c2)cc1 (centres unmarked): 89%
NC1CC1c1ccc(NC(=O)c2ccc3ccccc3c2)cc1 (centres unmarked): 95%
NC1CC1c1ccc(NC(=O)Cc2cccc3ccccc23)cc1 (centres unmarked): 98%

Other studies, line by line
CCCCCc1cc(O)c2c(c1)OC(C)(C)[C@@H]1CCC(C)=C[C@@H]21 — inhibition (Sodium-dependent dopamine transporter (SLC6A3, Homo sapiens, UniProt Q01959); binding; 1 µM): 22%
CC1=CC(=O)[C@@H](O)[C@]2(C)[C@H]3[C@@H](O)[C@H](O)[C@@]4(C)OC[C@@]35[C@@H](C[C@@H]12)OC(=O)[C@H](O)[C@]54O — CC50 (human cells; 48 (unit not given)): 0.38 µM

A few entries again (study 2):
NC1CC1c1ccc(NC(=O)Cc2ccc3ccccc3c2)cc1 (centres unmarked): 89%
